{"data": "Assay results collected from several papers", "target": "C-X-C chemokine receptor type 4 (CXCR4, Homo sapiens, UniProt P61073)", "note": "Protocols differ between the studies behind these lines. “And” joins repeats or separate records; there may be more than shown.", "UniProt P61073, sequence (whole entry, looked up)": "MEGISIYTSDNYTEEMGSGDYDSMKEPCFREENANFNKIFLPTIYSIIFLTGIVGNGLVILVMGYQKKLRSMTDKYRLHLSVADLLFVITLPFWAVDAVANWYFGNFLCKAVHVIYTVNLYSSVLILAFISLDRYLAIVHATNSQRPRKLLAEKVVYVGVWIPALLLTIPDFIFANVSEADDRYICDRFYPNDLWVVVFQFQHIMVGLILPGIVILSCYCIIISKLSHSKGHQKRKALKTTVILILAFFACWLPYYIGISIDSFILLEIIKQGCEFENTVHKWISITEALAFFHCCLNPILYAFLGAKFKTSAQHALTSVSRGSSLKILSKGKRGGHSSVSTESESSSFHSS"}
{"SMILES": "Cc1ccc(S(=O)(=O)NCc2ccc(CNC(=O)c3cccc(Cl)c3)cc2)cc1", "test": "binding, inhibitor, competitive binding", "system": "MDA-MB-231", "setting": "added: biotinylated TN14003", "endpoint": "EC", "result": "100 nM"}
{"SMILES": "O=C(NCc1ccc(CNS(=O)(=O)c2ccc3c(c2)CCO3)cc1)c1cc2ccccn2n1", "test": "binding, competitor", "system": "MDA-MB-231", "setting": "semi-quantitative, added: biotinylated TN14003", "endpoint": "effective concentration", "result": "1 nM"}
{"SMILES": "CC(C)NCCCC[C@H](NC(=O)[C@H]1CCC(=O)N[C@@H](Cc2ccccc2)C(=O)N[C@@H](Cc2ccc(O)cc2)C(=O)N[C@@H](CCCCNC(C)C)C(=O)N[C@H](CCCNC(=N)N)C(=O)N[C@@H](Cc2ccc3ccccc3c2)C(=O)NCC(=O)N1)C(N)=O", "test": "radioligand uptake, competitor", "system": "MM.1S cells", "setting": "75 µM, added: [18F]AlF-NOTA-SC", "endpoint": "inhibition", "result": "47%"}
{"SMILES": "CN1CCN(c2cc(-c3ccncc3)c(-c3ccc4ccccc4c3)nn2)CC1", "test": "antagonist, FLIPR", "setting": "10 µM", "endpoint": "inhibition", "result": "23%"}
{"SMILES": "O=C(NCc1ccc(CNS(=O)(=O)c2ccccc2)cc1)c1ccc(F)cc1", "test": "binding, inhibitor, competitive binding", "system": "MDA-MB-231", "setting": "added: biotinylated TN14003", "endpoint": "EC", "result": "100 nM"}
{"SMILES": "O=C(NCc1ccc(CNS(=O)(=O)c2ccc3c(c2)CCO3)cc1)c1cccc2c1COC2", "test": "binding, competitor", "system": "MDA-MB-231", "setting": "semi-quantitative, added: biotinylated TN14003", "endpoint": "effective concentration", "result": "~1000 nM"}
{"SMILES": "CCc1ccc(NC(=O)c2nc(S(C)(=O)=O)ncc2N(Cc2ccccc2)Cc2ccco2)cc1", "test": "arrestin recruitment, antagonist, DiscoverX arrestin", "setting": "30 µM", "how to read": "relative to: control", "endpoint": "inhibition", "result": "0.69% and 0.76%"}
{"SMILES": "COc1cccc(C(=O)NCc2ccc(CNS(=O)(=O)c3ccc(C)cc3)cc2)c1", "test": "binding, inhibitor, competitive binding", "system": "MDA-MB-231", "setting": "added: biotinylated TN14003", "endpoint": "EC", "result": "10 nM"}
{"SMILES": "CS(=O)(=O)c1ncc(N(Cc2ccccc2)Cc2ccco2)c(C(=O)Nc2ccccc2Cl)n1", "test": "arrestin recruitment, antagonist, DiscoverX arrestin", "setting": "30 µM", "how to read": "relative to: control", "endpoint": "inhibition", "result": "0.48% and 0.38%"}
{"SMILES": "CC(C)NCCCC[C@@H]1NC(=O)[C@H](Cc2ccc(O)cc2)NC(=O)[C@H](Cc2ccccc2)NC(=O)CC[C@H](C(=O)N[C@@H](CCCCNC(C)C)C(=O)N[C@@H](CCCCNC(=O)[C@H](CCC(=O)O)NC(=O)[C@H](CCC(=O)O)NC(=O)[C@H](CCC(=O)O)NC(=O)CN2CCN(CC(=O)O)CCN(CC(=O)O)CC2)C(N)=O)NC(=O)CNC(=O)[C@H](Cc2ccc3ccccc3c2)NC(=O)[C@@H](CCCNC(=N)N)NC1=O [fluorine-18 labelled]", "test": "radioligand binding", "system": "U87.CD4.CXCR4 cells", "setting": "concentration not given, 1 h", "endpoint": "total cellular uptake", "result": "7.14% and 7.1%"}
{"SMILES": "S=C(NCCCCCCNC(=S)Nc1ccccc1)Nc1ccccc1", "test": "arrestin recruitment, antagonist, DiscoverX arrestin", "setting": "30 µM", "how to read": "relative to: control", "endpoint": "inhibition", "result": "0.45% and 0.29%"}
{"SMILES": "Cc1nnsc1C(=O)NCc1ccc(CNS(=O)(=O)c2ccc(F)c(F)c2)cc1", "test": "binding, competitor", "system": "MDA-MB-231", "setting": "semi-quantitative, added: biotinylated TN14003", "endpoint": "effective concentration", "result": "10 nM"}
{"SMILES": "CC[C@]12CCCN3CCc4c([nH]c5ccccc45)[C@]31N(Cc1cn(Cc3ccccc3)nn1)C(=O)C2", "test": "beta-arrestin recruitment, antagonist, PathHunter chemiluminescence", "setting": "20 µM, added: agonist at EC80", "endpoint": "inhibition", "result": "34%"}
{"SMILES": "Cn1nccc1C(=O)NCc1ccc(CNS(=O)(=O)c2ccc3c(c2)CCO3)cc1", "test": "binding, competitor", "system": "MDA-MB-231", "setting": "semi-quantitative, added: biotinylated TN14003", "endpoint": "effective concentration", "result": "~1000 nM"}
{"SMILES": "Cc1ccc(S(=O)(=O)NCc2ccc(CNC(=O)c3c(Cl)cc(Cl)cc3Cl)cc2)cc1", "test": "binding, inhibitor, competitive binding", "system": "MDA-MB-231", "setting": "added: biotinylated TN14003", "endpoint": "EC", "result": "10 nM"}
{"SMILES": "N=C(N)NCCCC[C@@H]1NC(=O)CCSSC[C@@H](C(N)=O)NC(=O)[C@@H]2CCCN2C(=O)[C@H](Cc2c[nH]c3ccccc23)NC(=O)[C@H](CC(=O)O)NC(=O)CNC1=O", "test": "arrestin recruitment, DiscoverX arrestin", "setting": "30 µM", "endpoint": "inhibition", "result": "-3% and -1%"}
{"SMILES": "O=C(NCc1ccc(CNS(=O)(=O)c2ccccc2)cc1)c1ccc(Cl)cc1", "test": "binding, inhibitor, competitive binding", "system": "MDA-MB-231", "setting": "added: biotinylated TN14003", "endpoint": "EC", "result": "100 nM"}
{"SMILES": "c1ccc(N(Cc2ccco2)Cc2nnc(C3CCC3)o2)cc1", "test": "arrestin recruitment, antagonist, DiscoverX arrestin", "setting": "30 µM", "how to read": "relative to: control", "endpoint": "inhibition", "result": "0.04% and -0.03%"}
{"SMILES": "O=C(NCc1ccc(CNS(=O)(=O)c2ccccc2)cc1)c1ccc([N+](=O)[O-])cc1", "test": "binding, inhibitor, competitive binding", "system": "MDA-MB-231", "setting": "added: biotinylated TN14003", "endpoint": "EC", "result": "100 nM"}
{"SMILES": "CCOc1cc(/C=C/C(=O)c2ccc(Cl)cc2)ccc1O", "test": "arrestin recruitment, antagonist, DiscoverX arrestin", "setting": "30 µM", "how to read": "relative to: control", "endpoint": "inhibition", "result": "0.03% and 0.28%"}
{"SMILES": "O=C(NCc1ccc(CNS(=O)(=O)c2ccccc2)cc1)c1ccccc1Cl", "test": "binding, inhibitor, competitive binding", "system": "MDA-MB-231", "setting": "added: biotinylated TN14003", "endpoint": "EC", "result": "10 nM"}
{"SMILES": "COc1ccc(-c2cc3nc(C)cc(N4CCN(c5ccccn5)CC4)n3n2)cc1OC", "test": "arrestin recruitment, antagonist, DiscoverX arrestin", "setting": "30 µM", "how to read": "relative to: control", "endpoint": "inhibition", "result": "-0.88% and -0.82%"}
{"note": "A few entries again:"}
{"SMILES": "c1ccc(N(Cc2ccco2)Cc2nnc(C3CCC3)o2)cc1", "test": "arrestin recruitment, antagonist, DiscoverX arrestin", "setting": "30 µM", "how to read": "relative to: control", "endpoint": "inhibition", "result": "0.04% and -0.03%"}
{"SMILES": "O=C(NCc1ccc(CNS(=O)(=O)c2ccccc2)cc1)c1ccc([N+](=O)[O-])cc1", "test": "binding, inhibitor, competitive binding", "system": "MDA-MB-231", "setting": "added: biotinylated TN14003", "endpoint": "EC", "result": "100 nM"}
{"SMILES": "CCOc1cc(/C=C/C(=O)c2ccc(Cl)cc2)ccc1O", "test": "arrestin recruitment, antagonist, DiscoverX arrestin", "setting": "30 µM", "how to read": "relative to: control", "endpoint": "inhibition", "result": "0.03% and 0.28%"}
